Assay results gathered from unrelated publications.
Each line is one published result; not all experiments were run side by side. Values joined by “and” are separate records of one study, mostly repeats; a detail may differ. ± gives the spread as reported.
CASP7: Caspase-7 (CASP7, Homo sapiens, UniProt P55210)
Gria2: Glutamate receptor 2 (Gria2, Rattus norvegicus, UniProt P19491)

NCc1ccc(NC(=O)c2cc(-c3ccccc3)n(-c3ccccc3)n2)cc1  inhibition (Genome polyprotein, NS2B-NS3 protease (dengue virus type 2, UniProt P29990); reporter gene; HeLa; 12.5 µM): 62%
CCCCCC(O)/C=C/C=O (stereo not drawn)  probe labelling ratio (CKB (Homo sapiens, UniProt P12277); acylphosphate-ATP probe SILAC-ABPP; ZAK-transfected HEK293T; 100 µM, together with: acylphosphate-ATP probe; relative to: DMSO over compound-treated): 0.65
CC(=O)N[C@@H](CC(C)C)C(=O)N[C@@H](CCC(=O)O)C(=O)N[C@@H](CCC1CCCCC1)C(=O)N[C@@H](CC(=O)O)C(=O)COC(=O)c1c(C)cccc1C  kinact/KI (CASP7; enzyme activity, inhibitor): 17700 M⁻¹ s⁻¹
O=C1c2sc(-c3ccc(N4CCC(CO)CC4)nc3F)nc2CCN1c1cccnc1  inhibition (HRH4 (Homo sapiens, UniProt Q9H3N8); ligand displacement, radioligand; 1 µM): -18%
CCOC(=O)C(CC)(CCCSCCOCCOCCN=[N+]=[N-])NC(=O)c1ccc(C2CC2)c(Cc2ccc(F)cc2)n1 (stereo not drawn)  Emax (CNR2 (Homo sapiens, UniProt P34972); cAMP, agonist): 93%
CCCCCCCC/C=C\CCCCCCCC(=O)NCCO  maximal open probability (Trpv1 (Mus musculus, UniProt Q704Y3, S513A); ion current, agonist, whole-cell patch clamp; relative to: 3 mM 2-APB current): 0.81 ± 0.16
N#CN1CC[C@H](C(=O)Nc2nc3c(s2)CN(C(=O)Cn2cc(COCCOCCOCCOCCNC(=O)CCCC[C@@H]4SC[C@@H]5NC(=O)N[C@@H]54)nn2)CC3)C1  iBAQ abundance (USP7 (Homo sapiens, UniProt Q93009); probe binding, affinity probe, neutravidin pull-down LC-MS/MS; HEK293T, cell lysate; 5 µM, 1 h, mean of three replicates, unit not given; higher = more pulled down): 5.59e+06
O=C(O)Cc1cc2c(cc1C(=O)c1cccc(Cl)c1)OCO2  current amplitude (Gria2; glutamate-evoked current, whole-cell patch clamp; HEK-293T; concentration not given, pH 7.4, holding potential -60 mV, together with: 10 mM glutamate): 148 ± 11 pA
C=C1CCCCCCCCCC(CO)C1=O (stereo not drawn)  remaining binding (ERBB2 (Homo sapiens, UniProt P04626); cell-free assay, competition with immobilised ligand; 10 µM): 100%
O=C(O)Cc1cc2c(cc1C(=O)c1ccccc1Br)OCO2  current amplitude ratio (Gria2; glutamate-evoked current, whole-cell patch clamp; HEK-293T; concentration not given; relative to: glutamate alone): 4.98 ± 0.2
CC(C)Oc1cc(Cl)ccc1CNc1cc(-c2ccccc2)nc2ncnn12  cAMP luminescence (GPR3 (Homo sapiens, UniProt P46089, Q211A); cAMP level, cAMP GloSensor; 1 µM; higher = more cAMP): 33200 a.u. and 40300 a.u. and 46800 a.u. and 33600 a.u.
CC(=O)N[C@H](CCc1ccccc1)C(=O)N[C@@H](CCCC(=O)O)C(=O)N1C[C@H](O)C[C@H]1C(=O)N[C@@H](CC(=O)O)C(=O)COC(=O)c1c(C)cccc1C  kinact/KI (CASP7; enzyme activity, inhibitor): 300 M⁻¹ s⁻¹
Cc1ccc(C)c(-c2cc(NC(=O)c3cncc(Br)c3)[nH]n2)c1  number of kinases hit (human kinase panel; binding, KINOMEscan; 10000 nM, %Ctrl below 10): 0
COC(=O)[C@@]1(C)C=C(C(=O)Nc2cccc(C(=O)Nc3ccc(Nc4nccc(-c5cccnc5)n4)c(C)c3)c2)C(=O)CC1  remaining activity (Mitogen-activated protein kinase 8, phosphorylated (MAPK8, Homo sapiens, UniProt P45983); enzyme activity after dialysis, inhibitor; 10 µM, 3 days, unit not given; relative to: no inhibitor): 0.188
Cc1cc(C)cc(COc2cc3c(cc2OCc2cc(C)cc(C)c2)C2CC(O)(Cc4cn(CCOCCOCCNC(=O)CCCCC5SCC6NC(=O)NC65)nn4)CC(C)N2CC3)c1 (stereo not drawn)  SILAC ratio (Transgelin-2 (Homo sapiens, UniProt P37802); biotinylated probe pull-down, measured: TAGLN2; 10 µM probe; relative to: heavy over light): 2.3

Repeated from above:
Cc1ccc(C)c(-c2cc(NC(=O)c3cncc(Br)c3)[nH]n2)c1  number of kinases hit (human kinase panel; binding, KINOMEscan; 10000 nM, %Ctrl below 10): 0
